Assay results collected from several papers.
± marks the error that the study gave.

| SMILES | cell line | test | conditions | IC50 [µM] |
| --- | --- | --- | --- | --- |
| N#Cc1cccc(-c2ccc(=O)n(Cc3cccc(-c4ncc(OCC5CCN(CCCCCC(=O)Nc6cccc7c6C(=O)N(C6CCC(=O)NC6=O)C7=O)CC5)cn4)c3)n2)c1 (stereo not shown) | Hs746T | cell growth or viability, CCK-8 | 72 h | 0.0516 |
| N#Cc1c(F)c(Cl)c2nc(SCc3ccccc3)nc(N)c2c1F | SGC-7901 | cell growth or viability, MTT | 96 h | 25 |
| COC(=O)[C@@H]1[C@@H](OC)[C@H](OC(=O)c2cc(OC)c(OC)c(OC)c2)C[C@@H]2CN3CC[C@]4(O[C@@H]3C(=O)[C@@H]21)C(=O)Nc1cc(OC)c(-c2ccc(C(F)(F)F)cc2)cc14 | SUP-T1 | cell growth or viability, trypan blue | 72 h | 1.62 |
| CN1CCCNC(=O)c2cccc(c2)C(=O)NCCCN(C)CCCNc2cccc3c2C(=O)c2cccc(c2C3=O)NCCC1 | SAS | cell growth or viability, CCK-8 | 48 h | 0.6 |
| CN1CCN(C(=O)c2cn(C34CCCC(C)(CCC5C3CC5(C)C)C4)nn2)CC1 (stereo not shown) | NCM460 | cell growth or viability, CCK-8 | 72 h | 33 |
| CC/C(=C(/c1ccc(O)cc1)c1ccc(OCCN(C)CCOCCOCCOCCOCCOC)cc1)c1ccccc1 | MDA-MB-231 (ER-negative) | cell growth | 96 h | 1.94 |
| CCCCN(CCCC)CC(O)COc1c2ccoc2c(OC)c2oc(CC)cc(=O)c12 (stereo not shown) | HTB-140 | viability, MTT | 72 h | 17.5 ± 3.4 |
| O=C(O)/C(Cc1ccccc1[N+](=O)[O-])=N\Nc1nc2c(s1)CS(=O)(=O)c1cc(Cl)c(Cl)cc1-2 | CRL-2351 | cell growth, sulforhodamine B | 5 days | > 20 |
| N.N.O=C(CCCc1ccccc1)[O][Pt]([Cl])([Cl])[O]C(=O)CCCc1ccccc1 | seven cancer cell lines | cytotoxicity | mean over panel | 0.26 |
| CCn1c2ccccc2c2cc(C(O)c3cccc4ncccc34)ccc21 (stereo not shown) | sample B patient-derived glioma cells | tumour microtube number per cell | 24 h | 0.015 |
| C=C1CCC(O)C(C)=CCC2C1CC2(C)C(=O)C=CC(C)(C)O (stereo not shown) | KPC | cell viability, CCK-8 | 72 h | 17.9 ± 0.87 |
| CCOC(=O)C/C(C)=N/NC(=O)c1nc2ccccc2n(C)c1=O | MCF7, HepG2 and HCT-116 | cell growth, MTT | range over three lines | > 10 |
| N#Cc1c(F)c(Cl)c2nc(SCc3ccc4ccccc4c3)nc(N)c2c1F | SGC-7901 | cell growth or viability, MTT | 96 h | 6.55 |
| O=C(O)c1ccc([P+]([Au-][Cl])(c2ccccc2)c2ccccc2)cc1 | UO-31 | cell viability, XTT | 72 h | 1.2 |
| CC/C(=C(\c1ccc(O)cc1)c1ccc(OCCN(C)CCOCCOCCOCCOCCOCCOCCOCCOCCOCCOCCOCCN(C)CCOc2ccc(/C(=C(/CC)c3ccccc3)c3ccc(O)cc3)cc2)cc1)c1ccccc1 | MDA-MB-231 (ER-negative) | cell growth | 96 h | 0.32 |
| COC(=O)[C@@]1(C)C=C(C(=O)Nc2cccc(C(=O)Nc3ccc(Nc4nccc(-c5cccnc5)n4)c(C)c3)c2)C(=O)CC1 | SH-SY5Y with activated MKK7 | western blot, refers to: phospho-c-Jun Ser73 | together with: doxycycline 6 h | ~0.7 |
| CC(C)Cc1ccc(C(C)C(=O)[O][Pt]([NH2])([NH2])([Cl])([Cl])[O]C(=O)C(Cl)Cl)cc1 (stereo not shown) | six human cancer lines | cytotoxicity, MTT |  | 0.41 |
| CC(=O)[O][Pt]([Cl])([Cl])[O]C(=O)CCCc1ccccc1.N.N | seven cancer cell lines | cytotoxicity | mean over panel | 6.42 |
| CC1=C(C(=O)c2ccc([N+](=O)[O-])cc2)C(=O)c2ccccc2C1=O | MRC-5 | cytotoxicity |  | 24 |
| COC1CCC(Nc2nc(-c3nccn3C)nc3sc(-c4ccn(C)n4)c(-c4ccccc4)c23)C1 (stereo not shown) | PANC-1 (KRAS G12D) | Western blot, refers to: phospho-MEK and phospho-ERK1/2 | 6 h, together with: EGF 15 min | ~1 |
| C[N+]1(C)CC[NH2+][Pt-2]1([OH])([Cl])([Cl])[O]C(=O)CCC(=O)O | SW1573 | cell growth or viability | 96 h | 151 |
| COC(=O)[C@@H]1[C@@H](OC)[C@H](OC(=O)c2cc(OC)c(OC)c(OC)c2)C[C@@H]2CN3CC[C@]4(O[C@@H]3C(=O)[C@@H]21)C(=O)Nc1cc(OC)ccc14 | SUP-T1 | cell growth or viability, trypan blue | 72 h | 2.85 |
| COc1ccc(C[C@H]2COC(=O)[C@@H]2Cc2ccc(OCCCCCCCCCC(=O)NO)c(OC)c2)cc1OC | KU812 | cell growth or viability, CCK-8 | 48 h | > 5 |
| CC1CN(C(=O)c2cn(C34CCCC(C)(CCC5C3CC5(C)C)C4)nn2)CCN1 (stereo not shown) | NCM460 | cell growth or viability, CCK-8 | 72 h | 17.6 |
| O=C(/C=C/c1ccc2c(c1)C(=O)N(CCCc1ccccc1)CC2)NO | Bel-7402 | cell growth, SRB | 72 h | 1.5 ± 0.09 |
| N#Cc1c(-c2ccc(Cl)cc2)cc(-c2cccc3ccccc23)n2c(Cc3ccccc3)nnc12 | U-937 | cell growth or viability, MTT | 72 h | 1.86 |

| SMILES | cell line | test | conditions | IC50 [µM] |
| --- | --- | --- | --- | --- |
| OCCNc1ccc(-c2nc3cc(OCCF)ccc3n3cccc23)cc1 | HEK293 DR-GFP reporter | homologous recombination, inhibitor | 48 h | 15.8 ± 8.5 |
| Cc1cn([C@@H]2O[C@H](CSSc3ccccn3)[C@@H](O)[C@H](F)[C@H]2O)c(=O)[nH]c1=O | FM3A | cell growth or viability |  | > 200 |
| Cc1cc(C#N)cc(C)c1Oc1cc(Nc2ccc(C#N)cc2)nc2cnccc12 | H69AR (multidrug resistant) |  | 48 h | > 128 |
| Nc1ccn([C@@H]2O[C@H](CSSc3ccccn3)[C@@H](O)[C@H](F)[C@H]2O)c(=O)n1 | FM3A | cell growth or viability |  | > 500 |
| CC(C)C[C@H](NC(=O)[C@@H]1CCCN1C(=O)[C@@H]1CCCN1C(=O)[C@H](CC(N)=O)NC(=O)[C@@H](N)Cc1ccc(Cl)c(Cl)c1)C(=O)N[C@@H](Cc1c[nH]cn1)C(=O)N[C@@H](CO)C(=O)N[C@H](C(=O)N[C@@H](C)C(=O)O)[C@@H](C)OP(=O)(O)O | U-266 | cell growth or viability, MTT | 72 h | 2.25 |
| Cc1ccc(C(C)C)cc1.N=C(N)Nc1nc2ccccc2s1.[Cl-].[Cl][Ru+] | BPH-1 | cell growth or viability, MTT | 24 h | 175 |
| Nc1ccn([C@@H]2O[C@H](CO)[C@@H](O)[C@@H]2O)c(=O)n1 | LO2 cells | viability, MTT | 24 h | 430 ± 40 |
| O=C(O)/C(Cc1ccccc1[N+](=O)[O-])=N\Nc1nc2c(s1)CS(=O)(=O)c1c-2ccc(Cl)c1Cl | CRL-2351 | cell growth, sulforhodamine B | 5 days | > 20 |
| COc1cc(/C=C/C(=O)/C=C(O)/C=C/c2ccc(OCC(=O)N3CCOCCOCCOCCOCC3)c(OC)c2)ccc1OCC(=O)N1CCOCCOCCOCCOCC1 | SK-LU-1 | cell growth or viability, SRB |  | 9.3 |
| OC[C@H]1[C@@H](O)[C@@H](O)CN1CCc1ccccc1 | HCT116 p53-/- | MTS | 72 h | > 200 |
| CC1OC(OCC2OC(Oc3cc(O)c4c(=O)cc(-c5ccc(O)c(O)c5)oc4c3)C(O)C(O)C2O)C(O)C(O)C1O (stereo not shown) | HCT-116 p53+/+ | cell viability, resazurin reduction | 72 h | > 100 |
| CCCCCCCCSc1nc(N)c2c(F)c(C#N)c(F)c(F)c2n1 | SGC-7901 | cell growth or viability, MTT | 96 h | 73.5 |
| Cc1cnc2c(ccc3c(C)c(C)cnc32)c1C.O=C([O-])Cc1ccccc1Nc1c(Cl)cccc1Cl.O=C([O-])Cc1ccccc1Nc1c(Cl)cccc1Cl.[Mn+2] | HMLER-shEcad | mammosphere viability, resazurin |  | 3 ± 0.1 |
| N#Cc1cccc(-c2ccc(=O)n(Cc3cccc(-c4ncc(OCC5CCN(CCC(=O)Nc6cccc7c6C(=O)N(C6CCC(=O)NC6=O)C7=O)CC5)cn4)c3)n2)c1 (stereo not shown) | Hs746T | cell growth or viability, CCK-8 | 72 h | 0.0756 |
| CC(C)c1cccc(C(C)C)c1-n1c2c([n+](-c3c(C(C)C)cccc3C(C)C)[c]1[Cu-][Cl])-c1cccc3cccc-2c13 | CHO | cell growth or viability, MTT | 72 h | 1.5 |
| N#Cc1cccc(-c2ccc(=O)n(Cc3cccc(-c4ncc(OCC5CCN(CC(=O)NCCOCCNc6ccc7c(c6)C(=O)N(C6CCC(=O)NC6=O)C7=O)CC5)cn4)c3)n2)c1 (stereo not shown) | Hs746T | cell growth or viability, CCK-8 | 72 h | 0.00589 |
| CC(C)C1OC(=O)C(NC(=O)c2cccc(O)c2)C(C)OC(=O)C(C(C)C)OC(=O)C(C)(C)C(=O)C(Cc2ccccc2)OC1=O (stereo not shown) | NCM460 | cell viability, CCK-8 | 72 h | > 50 |
| CC(=O)O[C@H]1CC[C@]2(C)[C@H]3CC=C4[C@@H]5[C@@H](C)[C@H](C)CC[C@]5(C(=O)O)CC[C@@]4(C)[C@]3(C)CC[C@H]2C1(C)C | HELF | cell growth or viability, MTT | 24 h | 54.5 |
| Cc1cc(/C=C/C#N)cc(C)c1Oc1cc(Nc2ccc(C#N)cn2)nc2ccncc12 | H69AR (multidrug resistant) |  | 48 h | > 120 |
| CCC(C)C1OC(=O)C(C)(C)C(=O)C(Cc2ccccc2)OC(=O)C(C(C)C)OC(=O)C(NC(=O)c2cccc(O)c2)C(C)OC1=O (stereo not shown) | NCM460 | cell viability, CCK-8 | 72 h | > 50 |
| COc1ccc(-c2nnc(-c3ccccn3)[nH]2)cc1OC.COc1ccc(-c2nnc(-c3ccccn3)[nH]2)cc1OC.[Cu+2].[O-][Cl+3]([O-])([O-])[O-].[O-][Cl+3]([O-])([O-])[O-] | T24 | cell growth or viability, MTT | 24 h | 91.4 |
| CCN(CC)CCN1C(=O)c2ccc3c4cccc5c(N6CCNCC6)ccc(c6ccc(c2c36)C1=O)c54 | A549, PC-3, HL-60 | cytotoxicity, SRB | 72 h, range over three lines | 3.1 to 7.4 |
| C=C(C)[C@@H]1CC[C@]2(C(=O)O)CC[C@]3(C)[C@H](CC[C@@H]4[C@@]5(C)CC[C@H](O[C@@H]6O[C@@H](C)[C@H](O)[C@@H](OC)[C@H]6O)C(C)(C)[C@@H]5CC[C@]43C)[C@@H]12 | human Skin fibroblast | cell growth or viability | 48 h | 41 |
| CCC1=C(CC)C2=[N+]3C1=Cc1c(CC)c(CC)c4[n]1[Ir-3]31([Cl])([C]#[O+])[n]3c(c(CC)c(CC)c3=CC3=[N+]1C(=C4)C(CC)=C3CC)=C2 | human cancer cell lines | cytotoxicity | dark | > 50 |
| C=CC(=O)N1C[C@H](C)N(c2nc(OC[C@@]34CCCN3C[C@H](F)C4)nc3c(F)c(-c4ccc(F)c5sc(N)c(C#N)c45)c(C(F)(F)F)cc23)C[C@H]1C | A-375 (BRAF V600E) | HTRF, refers to: pERK | 2 h | > 10 |
| O=c1ccn([C@@H]2O[C@H](CO)[C@@H](O)[C@H](F)[C@H]2O)c(=O)[nH]1 | FM3A | cell growth or viability |  | > 200 |

Repeated from above:
| SMILES | cell line | test | conditions | IC50 [µM] |
| --- | --- | --- | --- | --- |
| Cc1ccc(C(C)C)cc1.N=C(N)Nc1nc2ccccc2s1.[Cl-].[Cl][Ru+] | BPH-1 | cell growth or viability, MTT | 24 h | 175 |
| CC1OC(OCC2OC(Oc3cc(O)c4c(=O)cc(-c5ccc(O)c(O)c5)oc4c3)C(O)C(O)C2O)C(O)C(O)C1O (stereo not shown) | HCT-116 p53+/+ | cell viability, resazurin reduction | 72 h | > 100 |
| CCn1c2ccccc2c2cc(C(O)c3cccc4ncccc34)ccc21 (stereo not shown) | sample B patient-derived glioma cells | tumour microtube number per cell | 24 h | 0.015 |
| O=C(O)/C(Cc1ccccc1[N+](=O)[O-])=N\Nc1nc2c(s1)CS(=O)(=O)c1c-2ccc(Cl)c1Cl | CRL-2351 | cell growth, sulforhodamine B | 5 days | > 20 |
| CC(C)Cc1ccc(C(C)C(=O)[O][Pt]([NH2])([NH2])([Cl])([Cl])[O]C(=O)C(Cl)Cl)cc1 (stereo not shown) | six human cancer lines | cytotoxicity, MTT |  | 0.41 |
| CC/C(=C(\c1ccc(O)cc1)c1ccc(OCCN(C)CCOCCOCCOCCOCCOCCOCCOCCOCCOCCOCCOCCN(C)CCOc2ccc(/C(=C(/CC)c3ccccc3)c3ccc(O)cc3)cc2)cc1)c1ccccc1 | MDA-MB-231 (ER-negative) | cell growth | 96 h | 0.32 |
| Nc1ccn([C@@H]2O[C@H](CO)[C@@H](O)[C@@H]2O)c(=O)n1 | LO2 cells | viability, MTT | 24 h | 430 ± 40 |
| Cc1cnc2c(ccc3c(C)c(C)cnc32)c1C.O=C([O-])Cc1ccccc1Nc1c(Cl)cccc1Cl.O=C([O-])Cc1ccccc1Nc1c(Cl)cccc1Cl.[Mn+2] | HMLER-shEcad | mammosphere viability, resazurin |  | 3 ± 0.1 |
